Assay results gathered from unrelated publications.
Each line is one published result; not all experiments were run side by side. Several values in a cell are separate wells, animals, samples, runs or records. ± gives the spread as reported.

| SMILES | assay | system | conditions | half-life |
| --- | --- | --- | --- | --- |
| [2H]C([2H])(c1ccccc1)C([2H])([2H])N1C(=O)CC(=O)N(C([2H])([2H])C([2H])([2H])c2ccccc2)C1=O |  | plasma |  | 0.823 h |
| CC(C)C[C@H](NC(=O)[C@H](CCCNC(=N)N)NC(=O)[C@H](C)NC(=O)[C@H](CC(C)C)NC(=O)[C@@H](N)CCCCN)C(=O)N[C@@H](CC(C)C)C(=O)N[C@H](C(N)=O)[C@@H](C)O |  | human serum | 0.2 mg/mL, 37 °C | ~5 h |
| Cc1nc(-c2ccc(NC(=O)c3cccs3)cc2Cl)no1 | plasma stability | mouse plasma | 5 µM, 37 °C | 1.3 h and 1.72 h |
| [2H]C1([2H])C[C@@H](C[C@@H](C#N)NC(=O)[C@@H]2[C@@H]3[C@H](CN2C(=O)[C@@H](NC(=O)C(F)(F)F)C(C)(C)C)C3(C)C)C(=O)N1 |  | mouse liver microsomes | microsomes 0.5 mg/mL | 0.258 h |
| NC(COc1cc(C(F)(F)F)cc(C(F)(F)F)c1)c1ccccc1 (stereo not drawn) | chemical stability, HPLC |  | pH 3, 37 °C | > 360 h |
| Nc1nc2c(ncn2COCCOC(=O)[C@@H](N)CO)c(=O)[nH]1 |  | DPBS | pH 7.4, 34 °C, chemical hydrolysis | 29.3 ± 2.7 h |
| CC(=O)N[C@H](CC(=O)O)C(=O)N[C@H](Cc1c[nH]c2ccccc12)C(=O)N[C@H](Cc1ccccc1)C(=O)N[C@H](CCCCN)C(=O)N[C@H](C)C(=O)N[C@H](Cc1ccccc1)C(=O)N[C@H](Cc1ccc(O)cc1)C(=O)N[C@H](CC(=O)O)C(=O)N[C@H](CCCCN)C(=O)N[C@@H](C(=O)N[C@H](C)C(=O)N[C@H](CCC(=O)O)C(=O)N[C@H](CCCCN)C(=O)N[C@H](Cc1ccccc1)C(=O)N[C@H](CCCCN)C(=O)N[C@H](CCC(=O)O)C(=O)N[C@H](C)C(=O)N[C@H](Cc1ccccc1)C(N)=O)C(C)C |  | statin-treated high-risk CHD patients, plasma | oral, 100 mg daily, day 13, median, detected subjects | 0.46 h |
| COC1CN([C@H]2CC[C@H]([C@@]3(C)Oc4c(Cl)cc(C(=O)NCc5c(SC)cc(C)[nH]c5=O)c(C)c4O3)CC2)C1 |  | patients with advanced tumours, plasma | oral, once daily, phase I | ~8 h |
| CCC(CSC[C@@H](NC(=O)CC[C@@H](N)C(=O)O)C(=O)NCC(=O)O)C(=O)c1ccc(OCC(=O)NCCCC[18F])c(Cl)c1Cl (stereo partly drawn) |  |  | intact radiotracer in vivo | 1 h |
| O=[N][Fe]1([N]=O)[S](CCO)[Fe]([N]=O)([N]=O)[S]1CCO | stability | mouse plasma | 37 °C | 4.5 ± 0.2 h |
| CN(C)CCNC(=O)c1cc(-c2ccccc2)nc2ccccc12 |  | mouse liver microsomes |  | 0.373 h |
| CN1CCN(c2cc(-c3ccccc3CO)c(N(C)C(=O)C(C)(C)c3cc(C(F)(F)F)cc(C(F)(F)F)c3)cn2)CC1 |  | healthy volunteers, plasma | oral, dose not given | 48.8 to 67.8 h |
| CC[C@H](C)[C@H](NC(=O)CNC(=O)CNC(=O)c1ccc2c(c1)C(=O)OC21c2ccc(O)cc2Oc2cc(O)ccc21)C(=O)N[C@@H](Cc1ccc(O)cc1)C(=O)N[C@@H](C)C(=O)N(C)CC(=O)N1CCC[C@H]1C(=O)N(C)[C@@H](Cc1ccccc1)C(=O)N[C@@H](CCCCN)C(=O)N[C@@H](CCCCN)C(=O)N[C@@H](CCCCN)C(=O)O | CE-LIF | Baf/BCR-ABL cell cytosolic lysate | 1 µM, pH 7.4, 37 °C | 1.83 h |
| C[C@H](NC(=O)COC(=O)[C@H](C)NC(=O)CO)C(=O)O |  | water | pH 2, 25 °C | 674 h |
| CCC(CC)[C@H](NC(C)=O)[C@@H]1[C@H](O)[C@@H](C(=O)OCCOC(=O)[C@@H](N)C(C)C)C[C@H]1NC(=N)N |  | phosphate buffer | pH 4.5, 37 °C, chemical stability | 4.1 ± 0.567 h |

Excerpt of the above:
| SMILES | assay | system | conditions | half-life |
| --- | --- | --- | --- | --- |
| CN(C)CCNC(=O)c1cc(-c2ccccc2)nc2ccccc12 |  | mouse liver microsomes |  | 0.373 h |
| CCC(CC)[C@H](NC(C)=O)[C@@H]1[C@H](O)[C@@H](C(=O)OCCOC(=O)[C@@H](N)C(C)C)C[C@H]1NC(=N)N |  | phosphate buffer | pH 4.5, 37 °C, chemical stability | 4.1 ± 0.567 h |
